Experimental data pooled from the literature.
A part holds a random share of what one study measured.
Sequence of UniProt O60674 (whole entry, looked up): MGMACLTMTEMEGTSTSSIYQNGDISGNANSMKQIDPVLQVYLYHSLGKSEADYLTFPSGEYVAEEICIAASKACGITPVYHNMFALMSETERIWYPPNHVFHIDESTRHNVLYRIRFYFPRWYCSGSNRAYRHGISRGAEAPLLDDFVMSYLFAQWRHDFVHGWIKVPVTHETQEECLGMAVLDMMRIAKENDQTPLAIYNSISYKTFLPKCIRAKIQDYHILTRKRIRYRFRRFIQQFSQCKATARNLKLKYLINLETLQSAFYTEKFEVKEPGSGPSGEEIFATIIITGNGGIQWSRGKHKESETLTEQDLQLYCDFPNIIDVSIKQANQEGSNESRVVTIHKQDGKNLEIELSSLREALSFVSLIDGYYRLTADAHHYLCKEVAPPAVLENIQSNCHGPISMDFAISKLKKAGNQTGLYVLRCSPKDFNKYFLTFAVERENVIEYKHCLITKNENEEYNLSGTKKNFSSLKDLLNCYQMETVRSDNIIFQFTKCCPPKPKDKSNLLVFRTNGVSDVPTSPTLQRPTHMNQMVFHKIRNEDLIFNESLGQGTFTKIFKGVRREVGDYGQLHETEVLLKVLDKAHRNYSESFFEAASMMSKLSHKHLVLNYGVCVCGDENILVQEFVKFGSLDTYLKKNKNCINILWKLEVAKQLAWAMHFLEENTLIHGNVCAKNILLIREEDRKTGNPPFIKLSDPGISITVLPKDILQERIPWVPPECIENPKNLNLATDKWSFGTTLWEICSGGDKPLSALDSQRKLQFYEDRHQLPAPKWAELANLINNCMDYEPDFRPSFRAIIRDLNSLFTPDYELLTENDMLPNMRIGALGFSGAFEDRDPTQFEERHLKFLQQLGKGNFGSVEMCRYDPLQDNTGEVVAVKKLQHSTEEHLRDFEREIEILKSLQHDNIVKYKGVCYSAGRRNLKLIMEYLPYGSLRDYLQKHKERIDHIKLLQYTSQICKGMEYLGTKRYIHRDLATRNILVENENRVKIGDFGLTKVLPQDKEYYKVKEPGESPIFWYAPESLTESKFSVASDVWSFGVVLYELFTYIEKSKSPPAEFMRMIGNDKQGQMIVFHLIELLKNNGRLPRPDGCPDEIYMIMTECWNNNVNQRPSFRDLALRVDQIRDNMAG

Study 1
Target: GDNF-inducible zinc finger protein 1, full length (GZF1, Homo sapiens, UniProt Q9H116, residues 1-711)
Technique: protein-binding microarray
Molecule type: hairpin DNA
Medium: in vitro
Concentration: not given
Notes: whole hairpin DNA, median over replicate spots
Baseline: not given
Direction: higher = stronger binding
Quantity: median fluorescence
Shared flanks, not repeated: GAGGCCA … TGGCCTCACACTC
Residues (chain): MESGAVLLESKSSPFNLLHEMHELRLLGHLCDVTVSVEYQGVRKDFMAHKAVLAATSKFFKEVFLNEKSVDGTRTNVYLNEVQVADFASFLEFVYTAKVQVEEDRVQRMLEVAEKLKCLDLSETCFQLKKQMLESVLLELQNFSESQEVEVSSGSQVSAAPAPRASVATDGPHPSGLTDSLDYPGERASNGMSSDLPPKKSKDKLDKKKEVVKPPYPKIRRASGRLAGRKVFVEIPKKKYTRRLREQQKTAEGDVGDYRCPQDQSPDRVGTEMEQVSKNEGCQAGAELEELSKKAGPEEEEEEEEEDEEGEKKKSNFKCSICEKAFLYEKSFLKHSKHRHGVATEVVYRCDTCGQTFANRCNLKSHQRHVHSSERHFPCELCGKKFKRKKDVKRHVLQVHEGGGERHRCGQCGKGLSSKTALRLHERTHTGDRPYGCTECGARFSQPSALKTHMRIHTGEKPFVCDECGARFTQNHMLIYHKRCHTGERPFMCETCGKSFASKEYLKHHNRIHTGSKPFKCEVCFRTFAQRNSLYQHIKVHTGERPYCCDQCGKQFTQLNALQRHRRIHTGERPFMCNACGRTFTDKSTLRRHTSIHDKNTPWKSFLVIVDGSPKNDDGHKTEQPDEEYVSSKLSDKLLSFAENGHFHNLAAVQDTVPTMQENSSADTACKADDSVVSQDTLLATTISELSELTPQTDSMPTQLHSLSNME
GTACGGTAATGCCTCCTGGCATTACCGTAC (5mC at 37): 752 a.u.
TTAAGGTAATGCCTCCTGGCATTACCTTAA: 332 a.u.
TTACGGAAATGCCTCCTGGCATTTCCGTAA: 456 a.u.
TCGCGGTAATGCCTCCTGGCATTACCGCGA (5mC at 35): 730 a.u.
TTACGGTATTGCCTCCTGGCAATACCGTAA: 532 a.u.
ATACGGTAATGCCTCCTGGCATTACCGTAT: 632 a.u.
TTCGGGTAATGCCTCCTGGCATTACCCGAA: 498 a.u.
TTACGTTAATGCCTCCTGGCATTAACGTAA: 380 a.u.

Study 2
Target: Hepatocyte nuclear factor 3-alpha (Foxa1, Mus musculus, UniProt P35582, residues 1-468, full length assumed)
Technique: EMSA with sequencing
Molecule type: double-stranded DNA, one strand shown
Medium: in vitro
Concentration: 10 and 20 nM
Notes: whole designed probe, mean of two concentrations, ends assumed
Baseline: negative control set to 0
Direction: higher = stronger binding
Quantity: normalised bound fraction
Shared flanks, not repeated: GTGAGCGGTGCCCATTGATGGGGAAC … TTTCACTGGGATCGTGGGGAC
Target sequence (chain): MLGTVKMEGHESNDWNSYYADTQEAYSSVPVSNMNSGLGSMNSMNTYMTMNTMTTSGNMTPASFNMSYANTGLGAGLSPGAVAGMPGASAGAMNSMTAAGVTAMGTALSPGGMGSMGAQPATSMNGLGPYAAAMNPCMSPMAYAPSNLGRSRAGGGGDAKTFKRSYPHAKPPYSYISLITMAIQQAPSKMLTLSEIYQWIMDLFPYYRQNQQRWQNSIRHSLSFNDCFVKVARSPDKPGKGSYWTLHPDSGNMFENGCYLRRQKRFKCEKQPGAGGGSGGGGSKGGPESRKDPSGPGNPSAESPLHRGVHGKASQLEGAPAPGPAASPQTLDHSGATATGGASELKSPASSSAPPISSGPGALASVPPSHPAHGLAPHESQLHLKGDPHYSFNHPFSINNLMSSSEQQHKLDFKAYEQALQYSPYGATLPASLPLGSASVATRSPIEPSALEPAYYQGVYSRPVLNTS
CTGGCCCTCACCTCAGTTGCTCCTATATTCACCACAGCCTTAGGGACACCCTTGATTCTTTCCGTTCATTAAGAAAAAGGTATAATTGTTCTTGTTTACTTATCTTCTGAAAAACATTAAAGAGTTTTTTTTTTAAAATAAACAAACCCAAAAACTAGCCTACAAAACACCTCAAAAACATTATGAAGCCTTT: 0.466 ratio
ATCTTCCCCCTCTTCCTTGCCCCACACCACCTCGTTCCCGGGTTATTTGCAGATAGGAAAATAAATAAAGCCGGCATTCGTTAACCCTCTTCTGGCGCAAACTGCTGTTTGCTCTGGATGAATCATGGTCCTTTGGCGACGCCAGGCTCCGGGAGAGCAAAGCACCGTGTCAGGGCCATGATCCGGGGTGGCC: 0.327 ratio
AACACCAAACATAATTTAAAGATTTAATATACAAGTGTCTTGTTAGAAATAAAAACTTTCAGGGGGGTAATAAGGAAAAGAGATTGAATGCAAAGTAATCTAGCAATTTTGCTAAACAGTGACAATTACATCAACCTGACTTAAAGCAAAAGACTTAGATTGCTGTGTGTATATATATATACCTACAGATATA: 0.0217 ratio
CCCTCATCCTGGGTGTCGGGGTGGGAGGTGTTCTCATCATGAATGGGAGGCGTACCCAGATCCAGCTCTGCCTTGTGACTCACCAACCAGAGTGTAAACAAATGGCTGTGTGTCACACCATAATCGACATAGCAAGATATGATACATGCCAGGAGAGAAAAAGAAAGTGCTGATGGAAAAATAATCTCATTAG: 0.409 ratio
TACTTATGGGTTGATTTCTGGAATCATTGCTTTATTTGGTGGTATTCACTAAGTAGGTCACTTGCATTCATTTACATAGGAAAGCTGCTTGTGTAATTTGCAAGGTCCCTTATGAGTCAGCATTACATGTCAGCATAAAGGGAGAAAACACGAAGCATTTTACAAATAATACTCTTTAGGTGAACACATTTTG: 0.113 ratio
TTCCGTCTGTGGTCTATAGCGTTGCCTCTTGCCTTTTTACAAGGAAGAAAAACTTGTATAAACATCATGATTCATGGGTTTTAATCACTTTAGGTAAACAGTGCTGCCAGATGATCCTGGTTTGCAGATTCAGGACATGAAATCCTTCAACTGACACTGAGATTTGTTTAGAGTTGATGGTGGGAGAAGAGAG: 0.312 ratio
ATCCTGTAGCCTCAGGGCTCTGACGTAAGCCACTTATCCTTGGGAAACATTTAGGTAAATATCACAGCTGATGTTGCAATTGTGCTCAAAGAATGTTTGCATTTCATAAAAGAGGAGACTCCTAGACACTAACACCCTAATCCACAAGGAATGCTCCCACATGCAGACATTTGGATACCTGCAAATAACAAGG: 0.364 ratio
TAAGACACCTTAGATAGGTTTTTTAGAGTTTAGTTTTGAAATATTTTGATAGCTAAACTTTCTTTTTCCAAATGAAATCATAGATGGGCACAATGTAAACAAAAATAATACAGCTCAGTATTAAGCAGAAAGTCCTTCATTGCTTGTGAAACCTGGAAATCAATTATTTCACACCCTTATGATTCTTAGAGAC: 0.453 ratio

Study 3
Target: TAR DNA-binding protein 43, full length, His tag (TARDBP, Homo sapiens, UniProt Q13148, residues 1-414)
Technique: RNA Bind-n-Seq
Molecule type: RNA
Medium: in vitro
Concentration: 20 nM
Notes: 6-mer, flanks averaged, single round
Together with: 150 mM KCl
Baseline: input library
Direction: higher = stronger binding
Quantity: 6-mer enrichment (R)
AAGUAC: 0.618
CAUAGC: 0.654
CCCAGG: 1
UACAGC: 0.65
AGCUGU: 0.768
GAUCAC: 0.659
UACCUU: 0.596
CGUCGG: 1.33

Further values, each from its own experiment
Cc1ccc(NC2=CC(=O)c3sc(C)nc3C2=O)cc1
remaining activity (Tyrosine-protein kinase JAK2 (JAK2, Homo sapiens, UniProt O60674); enzyme activity, inhibitor; 0.5 µM; baseline: control): 99.1%
